Published values of several laboratories.
Compare with care: the assays were run in different laboratories.
Target: Ephrin type-A receptor 3 (EPHA3, Homo sapiens, UniProt P29320)

C=CC(=O)N1CCc2ccc(-n3c(=O)ccc4cnc5ccc(-c6cnn(C)c6)cc5c43)cc21 has a remaining binding of 100% (KINOMEscan; 1 µM; reference: DMSO control).
For CCn1cc(C(=O)O)c(=O)c2c(N)c(F)c(NC3CCCCC3)cc21, the inhibition was -7.6% (kinase activity; 0.1 µM, added: ATP at Km).
With CCN1CCN(Cc2ccc(NC(=O)c3ccc(C)c(NC(=O)c4cncc(-c5cccs5)c4)c3)cc2C(F)(F)F)CC1 the remaining binding was 0.1% (binding, competition with immobilised ligand; 1 µM).
The remaining binding of CNC1C[S+]2CC[S+]3CC[S+](C1)[Ru-4]321([N]=C=S)[n]2c3ccc(OC)cc3c3c4c(c5cc(F)c[n+]1c5c32)C(=O)NC4=O (centres unmarked) is reported as 58% (KinomeScan; 0.1 µM; reference: untreated).
With Cc1cccc(O[C@H]2CCC[C@@H](C(C)CNCc3ccncc3)C2)c1 (relative stereo) the inhibition was -9% (cell-free assay; 10 µM).
With CC(C)=CC1OC(C)(C)C2C=C3C(=O)C(Cl)=CC(O)C3C3C(O)C4OC4C(=O)C132 (centres unmarked) the remaining binding was 90% (cell-free assay, competition with immobilised ligand; 10 µM).
COc1c(OCCCN2CCOCC2)ccc2c1N=C(NC(=O)c1cnc(N)nc1)N1CCN=C21 gave a remaining activity of 75% (kinase activity, inhibitor; 1 µM; reference: untreated control).
Nc1ncc2c(n1)-c1c([nH]c3ccc(C4=CCOCC4)cc13)CCC2 has a remaining binding of 61% (binding, competition with immobilised ligand; 1 µM).
With NC(=O)C[C@H]1CCc2sc3ncnc(O[C@H]4CC[C@H](N5CCOCC5)CC4)c3c21 the inhibition was 9% (enzyme activity, inhibitor; 10 µM).
For Nc1ncc(-c2cc(-c3cnn(CC(F)(F)F)c3)ncc2F)nc1C(=O)NC1CNCC(F)C1 (centres unmarked), the remaining activity was 88.5% (enzyme activity; 1 µM; reference: DMSO control).
C=CC(=O)Nc1cccc(-c2cnc3[nH]cc(C(=O)NC(C)(C)C)c3n2)c1 has an inhibition of -4% (enzyme activity, inhibitor; 0.1 µM).
CNC(=O)C1CCN(c2cc(C)c(F)cc2NC(=O)c2ccc(-c3cc(O)ccc3C)c(C)c2)CC1 gave a remaining binding of 30% (binding, competition with immobilised ligand; 1 µM).
Cc1ccc(-c2c(/C=C(\C#N)C(=O)NC(C)C)n(CCCO)c3ncnc(N)c23)cc1 gave a remaining binding of 78% (cell-free assay, competition with immobilised ligand; 1 µM).
COc1c(Cl)cccc1Nc1c(-c2ccncc2C#C[C@@]2(C)CCCN2C(=O)/C=C/CN(C)C)[nH]c2c1C(=O)NCC2 gave a remaining binding of 78% (cell-free assay, competition with immobilised ligand; 3 µM).

For quick reference, copied from above:
With CC(C)=CC1OC(C)(C)C2C=C3C(=O)C(Cl)=CC(O)C3C3C(O)C4OC4C(=O)C132 (centres unmarked) the remaining binding was 90% (cell-free assay, competition with immobilised ligand; 10 µM).
